Experimental data pooled from the literature.
Compare with care: the assays were run in different laboratories. Values joined by “and” are separate records of one study, mostly repeats; a detail may differ. Numbers after ± are the reported error.
Fibroin-modulator-binding protein-1: Fibroin-modulator-binding protein-1 99-193 (Bombyx mori, UniProt Q5FBS0)
HLA class I histocompatibility antigen, A alpha chain allele A*01:01: HLA class I histocompatibility antigen, A alpha chain, allele A*01:01 (Homo sapiens, UniProt P04439)
B1: UGT1A7 (Homo sapiens, UniProt Q9HAW7); chain GKLLVVPMDGSHWFTMQSVVEKLILRGHEVVVVMPEVSWQLGRSLNCTVKTYSTSYTLEDQDREFMVFADARWTAPLRSAFSLLTSSSNGIFDLFFSNCRSLFNDRKLVEYLKESCFDAVFLDPFDACGLIVAKYFSLPSVVFARGIFCHYLEEGAQCPAPLSYVPRLLLGFSDAMTFKERVWNHIMHLEEHLFCPYFFKNVLEIASEILQTPVTAYDLYSHTSIWLLRTDFVLEYPKPVMPNMIFIGGINCHQGKPVPMEFEAYINASGEHGIVVFSLGSMVSEIPEKKAMAIADALGKIPQTVLWRYTGTRPSNLANNTILVKWLPQNDLLGHPMTRAFITHAGSHGVYESICNGVPMVMMPLFGDQMDNAKRMETKGAGVTLNVLEMTSEDLENALKAVINDKSYKENIMRLSSLHKDRPVEPLDLAVFWVEFVMRHKGAPHLRPAAHDLTWYQYHSLDVIGFLLAVVLTVAFITFKCCAYGYRKCLGKKGRVKKAHKSKTH

`TASPAKETSF` — result for “normalised SPR binding response”: 70.8 normalised RU (human SCRIB PDZ3-4 tandem (MBP fusion); surface plasmon resonance; peptide; concentration not given; higher = stronger binding).
`FKBP12` gave a co-IP enrichment of 0 (co-immunoprecipitation; human plasma; unit not given, added: Band 3 peptide 1-56 bait; baseline: negative control).
`MTVCNASQRQAHAQATAVSL` gave a selectivity ratio of 2.9 ± 1.1 (HCC95 lung squamous carcinoma; phage binding output/input; peptide; baseline: control phage).
For `caspofungin`, the albumin was 32.4 g/L (adult ICU patients, mITT, serum; dose not given, Follow-up).
For `tripeptidyl peptidase 2`, the co-IP enrichment was 919 (co-immunoprecipitation; human RBC cytosol; DSSO crosslinker, unit not given, added: Band 3 peptide 1-56 bait; baseline: negative control).
Under “normalised SPR binding response”, `NRVDSKETEC` is recorded as 0 normalised RU (human MAGI1-2/6 PDZ construct (MBP fusion); surface plasmon resonance; peptide; concentration not given; higher = stronger binding).
With `SLLQWISQV` the reporter activation was 26.7% (Jurkat T cells expressing 1G4 TCR; NFAT-eGFP reporter, fluorescence microscopy; peptide; concentration not given, HLA-A*02:01 NY-ESO system).
`GSGAGKESYV`: “normalised SPR binding response” 97.4 normalised RU (human MAGI1-3/6 PDZ construct (MBP fusion); surface plasmon resonance; peptide; concentration not given; higher = stronger binding).
`thimet oligopeptidase` has a co-IP enrichment of 0 (co-immunoprecipitation; human RBC membrane; unit not given, added: Band 3 peptide 1-56 bait; baseline: negative control).
For `B1 (UGT1A7)`, the Vmax/Km was 536 µL/min/mg (CC(C)=CCc1cc2c(cc1O)O[C@H](c1ccc(O)cc1)CC2=O; steady-state kinetics; pH 7.4).
`SEC11A` has a co-IP enrichment of 37.1 (co-immunoprecipitation; human RBC membrane; DSSO crosslinker, unit not given, added: Band 3 peptide 1-56 bait; baseline: negative control).
For `PLLEWMPRL`, the reporter activation was 0.19% (Jurkat T cells expressing 1G4 TCR; NFAT-eGFP reporter, flow cytometry; peptide; concentration not given, HLA-A*02:01 NY-ESO system).
`GGWVEKETYY` gave a binding intensity of 0.0217 (human SCRIB PDZ3-4 tandem (MBP fusion); automated holdup; peptide, crude extract; concentration not given, corrected by standard peak, unit not given; baseline: biotin control resin, higher = stronger binding).
For `Peginesatide`, the mRNA level was 10.4 fold (UT7/EPO; microarray, measured: EGR1 mRNA (probe set 227404_s_at); 20 nM, 90 min; baseline: vehicle).
`colistin` has an MIC of 8 µg/mL (Salmonella enterica Enteritidis; broth microdilution; clinical isolate RKI 205/14).
With `EKPIDSETKM` the binding intensity was 0.728 (human MAGI1-3/6 PDZ construct (MBP fusion); automated holdup; peptide, crude extract; concentration not given, uncorrected, unit not given; baseline: biotin control resin, higher = stronger binding).
With `human LDL receptor` the co-IP enrichment was 0 (co-immunoprecipitation; human RBC cytosol; unit not given, added: Band 3 peptide 1-56 bait; baseline: negative control).
With `epoetin alfa` the mRNA level was 5.1 fold (UT7/EPO; microarray, measured: MAFF mRNA (probe set 36711_at); 5 U/mL, 90 min; baseline: vehicle).
For `GCGAGCGAGCGA (dsDNA)`, the Kd was 7.95 µM (Fibroin-modulator-binding protein-1; ITC; double-stranded DNA, one strand shown).
`UBE2I` gave a co-IP enrichment of 0 (co-immunoprecipitation; human RBC membrane; no crosslinker, unit not given, added: Band 3 peptide 1-56 bait; baseline: negative control).
For `cotadutide`, the plasma triglycerides was 138 ± 26 mg/dL (ob/ob mouse, AMLN diet NASH model; dose not given, terminal).
`LMPFGSLLDY` has a binding score of 70.2% (HLA class I histocompatibility antigen, A alpha chain allele A*01:01; conformational ELISA; peptide; concentration not given; baseline: positive control peptide, direction not given).
For `SVWLRKETRV`, the binding intensity was 0.462 (human MAGI1-3/6 PDZ construct (MBP fusion); automated holdup; peptide, crude extract; concentration not given, corrected by standard peak, unit not given; baseline: biotin control resin, higher = stronger binding).
`GLLQWVSMV` has a reporter activation of 0.00942% (Jurkat T cells expressing 1G4 TCR; NFAT-eGFP reporter, fluorescence microscopy; peptide; concentration not given, HLA-A*02:01 NY-ESO system).
`ACDDQNPWRAYLDLLFPTDTLLLDLLW`: “mean fluorescence intensity” 1450 ± 318 a.u. (ex vivo fluorescence imaging; peptide, BALB/c mice, 4T1 tumour-bearing, liver; intravenous, 5 nmol, 4 h post-injection; higher = more uptake).
`ALLEWVSQV` has a reporter activation of 0.22% (Jurkat T cells expressing 1G4 TCR; NFAT-eGFP reporter, flow cytometry; peptide; concentration not given, HLA-A*02:01 NY-ESO system).
`CTAGCTAGCTAG (dsDNA)` has a Kd of 3.73 ± 0.18 µM (Fibroin-modulator-binding protein-1; ITC; double-stranded DNA, one strand shown).
`milbemycin oxime` has an OD600 of 1.02 and 1.04 and 1.07 (Saccharomyces cerevisiae; cell growth; Pdr5 deleted, Cdr1 overexpressed; 2^-9.966 µg/mL, added: fluconazole 10 µg/mL).
`GSGAGSETSV` — result for “normalised SPR binding response”: 0 normalised RU (human MAGI1-2/6 PDZ construct (MBP fusion); surface plasmon resonance; peptide; concentration not given; higher = stronger binding).
`human alpha-enolase` has a co-IP enrichment of 210 (co-immunoprecipitation; human RBC cytosol; DSSO crosslinker, unit not given, added: Band 3 peptide 1-56 bait; baseline: negative control).
The reporter activation of `GLFQWIVQA` is reported as 0.0067% (Jurkat T cells expressing 1G4 TCR; NFAT-eGFP reporter, fluorescence microscopy; peptide; concentration not given, HLA-A*02:01 NY-ESO system).
For `Polymyxin B`, the membrane depolarisation was 665 a.u. and 489 a.u. and 549 a.u. (Staphylococcus aureus; DiSC3(5) fluorescence; concentration not given, 69 min; higher = more depolarisation).
For `SLLQWVTQV`, the reporter activation was 80.9% (Jurkat T cells expressing 1G4 TCR; NFAT-eGFP reporter, flow cytometry; peptide; concentration not given, HLA-A*02:01 NY-ESO system).
For `ERK2`, the co-IP enrichment was 0 (co-immunoprecipitation; human RBC cytosol; no crosslinker, unit not given, added: Band 3 peptide 1-56 bait; baseline: negative control).
For `GLFQWVAQA`, the reporter activation was 0.00272% (Jurkat T cells expressing 1G4 TCR; NFAT-eGFP reporter, fluorescence microscopy; peptide; concentration not given, HLA-A*02:01 NY-ESO system).
For `CLTSTVQLIMQ`, the binding score was 4.2% (HLA class I histocompatibility antigen, A alpha chain allele A*01:01; conformational ELISA; peptide; concentration not given; baseline: positive control peptide, direction not given).
The binding intensity of `GSGAGIESNV` is reported as 0.715 (human MAGI1-3/6 PDZ construct (MBP fusion); automated holdup; peptide, crude extract; concentration not given, uncorrected, unit not given; baseline: biotin control resin, higher = stronger binding).
With `SLLQWIAQV` the reporter activation was 51.1% (Jurkat T cells expressing 1G4 TCR; NFAT-eGFP reporter, flow cytometry; peptide; concentration not given, HLA-A*02:01 NY-ESO system).
